{"data": "Measurements of several laboratories", "target": "Dual specificity tyrosine-phosphorylation-regulated kinase 1B (DYRK1B, Homo sapiens, UniProt Q9Y463)"}
{"SMILES": "C=CC(=O)N1CCC(COCC(=O)N2CCN(c3nc(-c4cnc(N)nc4C(F)F)nc(N4CCOC[C@@H]4C)n3)CC2)CC1", "effect on": "binding", "method": "competition with immobilised ligand", "concentration": "1 µM", "quantity": "remaining binding", "result": "100%"}
{"SMILES": "CNc1ncc2c(/C=C/C(=O)N3CCC(OC)CC3)nn(Cc3cccc(C(F)(F)F)c3)c2n1", "effect on": "enzyme activity", "action": "inhibitor", "method": "radiometric", "concentration": "1 µM", "quantity": "remaining activity", "result": "86%"}
{"SMILES": "CN1CC(Oc2cnc(C#N)cc2-c2ccn3nc(NC(=O)C4CC4)cc3c2)C1", "effect on": "enzyme activity", "action": "inhibitor", "concentration": "1 µM", "quantity": "inhibition", "result": "34%"}
{"SMILES": "FC(F)(F)Oc1cccc(-c2cnc3ccc(-c4ccncc4)nn23)c1", "effect on": "cell-free assay", "method": "competition with immobilised ligand", "concentration": "5 µM", "quantity": "remaining binding", "result": "0.3%"}
{"SMILES": "COc1cc(-c2cncc3c2CN(C)Cc2cc(N4CCNCC4)ccc2-3)cc(OC)c1OC", "effect on": "enzyme activity", "action": "inhibitor", "concentration": "1 µM", "quantity": "remaining activity", "result": "110%"}
{"SMILES": "CCCCC(=O)Nc1ccc(-c2ccc3ncn(CCC)c(=O)c3c2)cn1", "effect on": "binding", "method": "competition with immobilised ligand", "concentration": "0.5 µM", "quantity": "remaining binding", "result": "77%"}
{"SMILES": "Cc1cc([C@@H](C)Nc2ccccc2C(=O)O)c2nc(N3CCC(F)(F)CC3)c(C#N)c(=O)n2c1", "effect on": "binding", "method": "competition with immobilised ligand", "concentration": "10 µM", "quantity": "remaining binding", "result": "100%"}
{"SMILES": "N#Cc1ccc(NC(=O)Nc2ccccc2)cc1", "effect on": "cell-free assay", "method": "competition with immobilised ligand", "concentration": "25 µM", "quantity": "remaining binding", "result": "45%"}
